Results pooled from the literature.
Numbered parts are unrelated; each lists some results of a single study. Changes are numbered by the printed parent chain.

Block 1 — target: OGT, full length, His-tagged (human); method: phage display, sequencing; matrix: in vitro; tested at: 1 µg OGT; relative to: input library; reading: higher = stronger binding; starting sequence: peptide; VAYPNSYMPKYQIST
Notes: single substitutions, 15-mer displayed peptide, unchanged parent 6.14
Variant	fold enrichment
P9A	1.27 fold
P9D	1.07 fold
I13P	0.314 fold
N5G	6.68 fold
N5F	7.92 fold
T15S	2.69 fold
V1G	7.04 fold
Y3V	4.04 fold
I13G	0.159 fold
A2M	5.21 fold
Y11D	0.801 fold
P9Y	1.32 fold
Y7L	2.69 fold
M8Y	2.77 fold
M8L	9.3 fold
P9N	0.795 fold
T15G	1.45 fold
Y7N	0.431 fold
I13W	0.502 fold
A2L	7.49 fold
A2P	7.53 fold
Y11T	0.597 fold
M8A	3.92 fold

Block 2 — method: DHFR PCA, dose-response; matrix: yeast; notes: Hill fit, mean, not affinity; added: (+)-ABA, dose series; reading: lower = more sensitive
Target: ABI1, truncated, D143A, DHFR fusion (Arabidopsis thaliana, UniProt P49597)
Starting sequence: PYL1, truncated, DHFR fusion (Arabidopsis thaliana, UniProt Q8VZS8); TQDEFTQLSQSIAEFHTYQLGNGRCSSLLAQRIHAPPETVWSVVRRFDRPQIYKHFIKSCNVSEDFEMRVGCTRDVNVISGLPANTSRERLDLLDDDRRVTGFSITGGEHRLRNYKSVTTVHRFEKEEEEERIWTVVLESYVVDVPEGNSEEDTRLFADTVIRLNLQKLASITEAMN
Variant	ABA EC50
M176R	2.51 µM
T1P	2.22 µM
I105G	533 µM
S59R	7.38 µM
D92R	165 µM
V143Q	79.5 µM
S42E	2.97 µM
Q10G	2.22 µM
T86Y	0.946 µM
N177L	3.95 µM
K168S	0.734 µM
V100G	449 µM
V145C	4.45 µM
R32K	2.41 µM
V44S	412 µM
P83M	383 µM
R113T	1.92 µM
A175S	1.91 µM
K116E	48.5 µM
A13K	2.36 µM
M176D	3.06 µM
L164M	0.655 µM
N177I	2.64 µM
K116Q	6.25 µM

Block 3 — method: RNA Bind-n-Seq; molecule type: RNA; matrix: in vitro; tested at: 200 nM; notes: whole 134-nt RNA, ends assumed; added: 150 mM KCl; relative to: input library; reading: higher = stronger binding
Target: Fragile X messenger ribonucleoprotein 1, C-terminal low-complexity region (Fmr1, Mus musculus, UniProt P35922)
Sequence	log2 enrichment
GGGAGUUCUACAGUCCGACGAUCGUGGACAACGCGUACUGGCUGUGGACUUUCCAGGGACGCCUCCUGCAGAAGAACAACAAGGACCGCUUCUGCCAGCUGCUGUGGCGGCCCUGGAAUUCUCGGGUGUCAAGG	-1.1
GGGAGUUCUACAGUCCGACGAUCGCAGGAAGUAAAAACAAAUGGAAAUGCUUCGGAUAGUGGCAGGGAAAGGGGUUGCUAAGGAAAGGGUGGGAUGGGAGUGGGUAAAGAGUUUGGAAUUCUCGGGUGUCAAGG	0.223
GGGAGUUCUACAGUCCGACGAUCAAGUCCUGUGCUACACAUCGUAUGUACCGAAUCGGAAAAAAAGGUGGUUUUUUUGGAAAGUAUUAUGUUACGCCGUUCGGAUCUGCACUUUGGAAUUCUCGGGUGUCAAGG	-0.981
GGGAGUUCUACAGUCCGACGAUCUGCCAUGGACAAUAUUACCAGGCAGAACCAAUUCUACGAUACCCAAGUCAUCAAACAAGAAAACGAGUCAGGCUACGAGAGGAGACCACUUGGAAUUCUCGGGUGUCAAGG	0.0138
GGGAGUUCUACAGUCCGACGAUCUAACUUUAGAGGAGGAUCUGAUGGAUAUGGCAGUGGACGUGGAUUUGGGGAUGGCUAUAAUGGGUAUGUAGGAGGACCUGGAGGUGGCAAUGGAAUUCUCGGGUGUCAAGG	0.209
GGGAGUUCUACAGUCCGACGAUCGCAGGAAGUAAAAACAAACGGAAAUGCUUCGGAUAGUGGCAGGGGUGGGGGUUGCUAAGGAAAGGGUGGGAUGGGAGUGGGUAAAGAGUUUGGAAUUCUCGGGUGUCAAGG	0.187
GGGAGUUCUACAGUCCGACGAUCAAGUCCUGUGCUACACAUCGUAUGUACCGAAUCAAACCCCCAAAUUUAAAUUUAAAAAAGUAUUAUGUUACGCCGUUCGGAUCUGCACUUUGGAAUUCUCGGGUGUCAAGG	0.261
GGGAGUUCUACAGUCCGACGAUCUCAUUGCAUGAAAAGUGGAAAAGUUUAGAUCUAUGGAAACAGAACUGUUGCCUAUAUGGAAAAUCAGUGCCUUGUGGCAAUACAGGUAAGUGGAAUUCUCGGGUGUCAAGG	-1.7
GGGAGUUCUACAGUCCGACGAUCAGUCCUGUGCUACACAUCGUAUGUACCGAAUCGGGUUUGGGUUUUUUUGGGAAAGGGAAAGUAUUAUGUUACGCCGUUCGGAUCUGCACUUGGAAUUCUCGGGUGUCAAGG	0.534
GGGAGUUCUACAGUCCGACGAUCUACUCUCUCGGGGCUGGAAGCUUCCUGACUGAAGAUCUCUCUGCACUUGGGGUUCUUUCUAGAACAUUUUCUAGUCCCCCAACACCCUUUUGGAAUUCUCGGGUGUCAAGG	1.09
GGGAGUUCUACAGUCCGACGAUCCACAGACAACACGCACCCACACAGACACAGAGAGAAGGGGUUGGGAUGGGGACAGGGUGCACAGCAGGGCGGGGUAGGACCCCAGCCCCUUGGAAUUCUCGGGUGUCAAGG	1.16
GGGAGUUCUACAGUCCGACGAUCCACAGACAACACGCACCCACACAGACACAGAGGGAAGGGGUUGGGAUGGGGACAGGGUGCACAGCAGGGAAAGGUAGGACCCCAGCCCCUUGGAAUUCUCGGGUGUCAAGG	0.972
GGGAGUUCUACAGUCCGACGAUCAGUCCUGUGCUACACAUCGUAUGUACCGAAUCGGAAAAAGGAAAAAGGGGAAAAAGGAAAGUAUUAUGUUACGCCGUUCGGAUCUGCACUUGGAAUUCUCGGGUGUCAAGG	-0.815
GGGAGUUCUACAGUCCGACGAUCGUCCUGUGCUACACAUCGUAUGUACCGAAUCAAACCCCCAAAUUUUUUUAAAUUUAAAAAAGUAUUAUGUUACGCCGUUCGGAUCUGCACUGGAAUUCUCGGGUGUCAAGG	0.274

Block 4 — method: universal PBM; molecule type: double-stranded DNA, one strand shown; matrix: in vitro; tested at: 600 nM; reading: higher = stronger binding
Target: Sal-like protein 4, full length isoform A (SALL4, Homo sapiens, UniProt Q9UJQ4, residues 1-1053)
Chain of UniProt Q9UJQ4 (whole entry, looked up): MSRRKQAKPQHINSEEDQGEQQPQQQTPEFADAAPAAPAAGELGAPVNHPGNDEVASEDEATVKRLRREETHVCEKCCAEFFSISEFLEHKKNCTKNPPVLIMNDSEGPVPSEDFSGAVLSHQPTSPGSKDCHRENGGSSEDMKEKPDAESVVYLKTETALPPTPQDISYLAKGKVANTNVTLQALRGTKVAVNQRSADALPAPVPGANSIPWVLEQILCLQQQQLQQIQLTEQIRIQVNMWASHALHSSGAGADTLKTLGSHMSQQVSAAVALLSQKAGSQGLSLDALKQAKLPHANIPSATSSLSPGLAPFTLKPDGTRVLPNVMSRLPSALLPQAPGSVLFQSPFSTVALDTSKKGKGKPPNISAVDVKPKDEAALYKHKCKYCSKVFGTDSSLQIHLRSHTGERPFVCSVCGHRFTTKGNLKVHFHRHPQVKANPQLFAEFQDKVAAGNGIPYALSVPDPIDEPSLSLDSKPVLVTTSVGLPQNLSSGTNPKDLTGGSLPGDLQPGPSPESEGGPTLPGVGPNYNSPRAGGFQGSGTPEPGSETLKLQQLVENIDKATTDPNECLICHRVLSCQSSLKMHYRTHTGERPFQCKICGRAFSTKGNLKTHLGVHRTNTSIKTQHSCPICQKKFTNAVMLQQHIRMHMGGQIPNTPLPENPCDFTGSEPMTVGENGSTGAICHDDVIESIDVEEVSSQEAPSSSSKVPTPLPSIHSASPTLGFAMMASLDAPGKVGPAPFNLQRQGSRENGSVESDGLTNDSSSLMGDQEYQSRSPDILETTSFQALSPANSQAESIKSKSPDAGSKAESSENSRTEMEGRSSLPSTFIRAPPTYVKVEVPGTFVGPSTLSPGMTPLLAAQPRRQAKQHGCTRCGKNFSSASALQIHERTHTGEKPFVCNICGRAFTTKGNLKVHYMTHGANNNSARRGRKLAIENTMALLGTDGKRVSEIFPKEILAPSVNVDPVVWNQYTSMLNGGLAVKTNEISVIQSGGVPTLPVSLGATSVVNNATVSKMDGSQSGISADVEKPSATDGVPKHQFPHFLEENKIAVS
Notes: 8-mer, flanks averaged, mean of replicates
Sequence	E-score
GGGGATTA	-0.0917
ATCCCATA	0.222
AGTGAACC	-0.136
ACAGTACC	-0.0331
GCACAAGA	-0.0329
CCGGTTGC	-0.199
ATTCATCG	0.123
AGGTCTAC	-0.105
GTTGAAGA	0.161
AAGCTTAG	0.073
CACCCTCC	-0.217
ACGTCAGG	-0.123
AACACCGT	-0.0797
CATGCGAG	-0.0277
GATAGGAC	-0.135
ATAGGCCC	-0.139
ACTCCGCC	-0.212
GCCGGGCC	-0.414
ACGGTTTA	-0.0752
CGATCTCA	-0.0314
ATTTGACC	-0.028
AGTGGTAC	-0.163

Block 5 — method: protein binding microarray; molecule type: double-stranded DNA, one strand shown; matrix: in vitro; tested at: not given; relative to: not given; reading: higher = stronger binding
Target: Histone acetyltransferase KAT6A, both winged helices, GST fusion (KAT6A, Homo sapiens, UniProt Q92794, residues 1-181)
Notes: 8-mer, flanks averaged, mean of 2 arrays, mostly near background
Target sequence (chain): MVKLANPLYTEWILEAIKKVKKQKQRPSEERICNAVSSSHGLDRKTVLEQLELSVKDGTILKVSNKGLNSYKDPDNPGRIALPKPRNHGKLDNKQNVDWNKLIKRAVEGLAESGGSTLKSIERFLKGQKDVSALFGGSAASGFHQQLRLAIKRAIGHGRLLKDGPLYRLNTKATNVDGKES
Sequence	E-score
ATTTATTG	-0.0364
ACTACTAC	0.0111
AGTCTAAT	0.0321
AAATAGCT	-0.0332
CACTAATA	-0.0726
ATAACAAC	-0.0533
ATGTAGCC	-0.151
AAGTCAAG	-0.0903
CCCTGTGA	-0.217
ATTACACC	-0.0114
CCTAGGAC	-0.269
CCGAACAC	0.145
CCATAAGA	-0.103
ATACTAAC	-0.104
AACGGTGA	0.107
GACGACCC	0.014
ATCTCAAC	0.032
GAATATGA	-0.0787
CTCCCCAG	-0.203
TAGGCGAA	-0.00894
TCAGAAGA	-0.119
GGTCAGCA	-0.0699
ATATGATA	0.0238
ACATGAGT	0.0111
AGGATCTC	-0.179

Block 6 — target: CCND2, cyclin fold, Cln2 fusion (human); method: yeast growth competition, sequencing; matrix: yeast; notes: weak parent motif; relative to: not given; reading: higher = stronger binding
Starting sequence: CDC6 docking peptide (human); TLKGRRLVFDNQL
Variant	normalised enrichment score
TLKGRRLVFDGQL [N11G]	0.138
TLKGRRLVFDNYL [Q12Y]	0.695
TLKGNRLVFDNQL [R5N]	-0.0418
TLKMRRLVFDNQL [G4M]	0.571
TLVGRRLVFDNQL [K3V]	0.618
TLKLRRLVFDNQL [G4L]	-0.173
TLKGRRLVFDNQP [L13P]	0.527
DLKGRRLVFDNQL [T1D]	-0.253
TLKGRRLVFDNQE [L13E]	0.567
TLKGRRLHFDNQL [V8H]	0.254
TLKGRRLVFDNQA [L13A]	0.362
TLKGRRLVFDNQH [L13H]	0.00785
TLKGRRLVFQNQL [D10Q]	-0.447
TLKGRRLVNDNQL [F9N]	-0.0602
TLKGRLLVFDNQL [R6L]	0.262
TYKGRRLVFDNQL [L2Y]	0.364
TLKGRRMVFDNQL [L7M]	0.124

For quick reference, copied from above (block 1):
Variant	fold enrichment
P9A	1.27 fold
P9D	1.07 fold
I13P	0.314 fold
N5G	6.68 fold
N5F	7.92 fold
T15S	2.69 fold
V1G	7.04 fold
Y3V	4.04 fold
I13G	0.159 fold
A2M	5.21 fold
Y11D	0.801 fold
P9Y	1.32 fold
Y7L	2.69 fold
M8Y	2.77 fold
M8L	9.3 fold
P9N	0.795 fold
